Assay results pooled from the literature.
Each numbered part is a random draw from the data of one study; scales do not carry over between parts.

Study 1
Target: RING finger protein unkempt homolog, zinc fingers 1-6, GST-SBP tag (UNK, Homo sapiens, UniProt Q9C0B0, residues 30-357)
Chain of UniProt Q9C0B0 (30-357, looked up): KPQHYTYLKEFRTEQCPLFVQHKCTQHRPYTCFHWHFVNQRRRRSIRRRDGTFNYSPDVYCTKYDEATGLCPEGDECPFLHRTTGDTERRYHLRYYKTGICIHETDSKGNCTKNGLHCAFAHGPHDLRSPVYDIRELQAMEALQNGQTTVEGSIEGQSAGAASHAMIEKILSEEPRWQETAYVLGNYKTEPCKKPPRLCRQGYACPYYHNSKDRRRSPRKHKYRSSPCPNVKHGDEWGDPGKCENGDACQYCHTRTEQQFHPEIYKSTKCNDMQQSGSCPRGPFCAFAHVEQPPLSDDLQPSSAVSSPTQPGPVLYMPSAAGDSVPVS
Technique: RNA Bind-n-Seq
Form: RNA
Matrix: in vitro
Concentration: not given
Setting: RNA with constant flanks, human and mouse sites, ends assumed
Relative to: input RNA pool
Direction: higher = stronger binding
| Sequence | bound/input enrichment [ratio] |
| --- | --- |
| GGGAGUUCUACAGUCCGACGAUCUUUGACAAUGUGGGCCUUUCCCCAGAUGGCUACCUAUAUAAAUGGCUUGACAACAUUCUGGCUUGUCAAGAUUUACGAGUUCAUCAACUUGGCUGCGAAGUUGUUGUCUUGCUACUGGAACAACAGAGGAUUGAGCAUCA | 0.142 |
| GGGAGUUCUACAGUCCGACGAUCUUUUGGAAACAGUUCAGGCUUUGGGGUGAGCCUGUUAAUCUGCGUGAACAACACGAUGCUUUAGAAUUUUUUAAUUCAUUGGUGGAUAGUUUAGAUGAAGCUUUAAAAGCUUUAGGACAUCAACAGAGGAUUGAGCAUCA | 2.69 |
| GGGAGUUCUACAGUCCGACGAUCCAGAAGCCAGUUGUGCACCCCUCAGCACCUGCUCCGCUCCCCAAAGACUACGCUUUUACCUUCUUCGAUCCCAAUGACCCUGCGUGCCAGGAAAUUCUGUUUGACCCGAAGACCACCAUCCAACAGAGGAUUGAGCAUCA | 0.357 |
| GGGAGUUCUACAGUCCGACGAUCGAGCAGAAACACACCCUCCAGCAGCACCAGGAAACGCCGAAGAAGAAAACAGGCUAUGGUGAAAUAAACGGUAAUGCUGGAGAAAGAGAAAUAUCUUUAAAGAGCCUCAGUUCUGAUGAACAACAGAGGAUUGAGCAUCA | 0.105 |
| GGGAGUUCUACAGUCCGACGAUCCUUUAAAACUUUGGUUGUCAACUUUCAUUAACCUUAAAUACACUGAAUGGAAUCAACACAAGUGAGACAUCUCAGACCUUUCCUGAUGCUACGGCUUUUGUUUUUCCAGUGGCCAAAAUACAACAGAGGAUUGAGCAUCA | 0.213 |
| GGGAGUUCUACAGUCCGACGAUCGUUGUACCUAAAGGAAAAGGAGAACAGAUUGCAAGGGAGCAUGGUAUUAGGUUUUUUGAGACUAGUGCAAAAGCAAAUAUAAACAUCGAAAAGGCGUUCCUCACGUUAGCUGAAGAUAUCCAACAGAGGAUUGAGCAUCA | 1.88 |
| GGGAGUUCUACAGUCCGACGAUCAGCAGCAUGGGGAGGACACGAGGAUAUUGUACUGAAUUUGCUACAACAUGGCGCUGAAGUGAACAAAGCUGAUAAUGAAGGUAGAACUGCUUUGAUAGCAGCAGCAUACAUGGGACAUAGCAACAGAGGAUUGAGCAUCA | 0.768 |
| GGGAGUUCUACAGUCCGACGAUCUACCCCAGUGAAGAAGCCAAAGAGGAGCUGGCCAAGAAAUGCAGCAUCACAGUAUCACAGGUAUCCAACUGGUUUGGCAACAAACGAAUCAGGUACAAGAAGAACAUCGGCAAAUUUCAACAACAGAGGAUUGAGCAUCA | 0.201 |

Study 2
Target: Fragile X messenger ribonucleoprotein 1, C-terminal low-complexity region (Fmr1, Mus musculus, UniProt P35922)
Technique: RNA Bind-n-Seq
Form: RNA
Matrix: in vitro
Concentration: 200 nM
Setting: whole 134-nt RNA, ends assumed
With: 150 mM KCl
Relative to: input library
Direction: higher = stronger binding
| Sequence | log2 enrichment |
| --- | --- |
| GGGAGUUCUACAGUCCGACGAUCCAAGUCCUGUGCUACACAUCGUAUGUACCGAAUCAAACCCAAACCCAAAUUUAAAAAAGUAUUAUGUUACGCCGUUCGGAUCUGCACUUCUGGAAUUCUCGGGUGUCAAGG | -0.168 |
| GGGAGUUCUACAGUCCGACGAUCCCUGUGCUACACAUCGUAUGUACCGAAUCGGGGUUUUUUUGGGGAAAAAGGGGAAAGGGGAAAGUAUUAUGUUACGCCGUUCGGAUCUGCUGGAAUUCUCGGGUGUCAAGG | 0.235 |
| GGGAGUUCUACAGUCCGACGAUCACCAUGCAGGUGGGAAUCUUUGGGAAGUGGGGCAAGGGGGGGAUAGGGAGGGGGGUAACACUUUGGGAACAGGUGGUCCCAGGUCGUUUCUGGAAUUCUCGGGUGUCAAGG | 0.598 |
| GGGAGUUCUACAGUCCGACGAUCGUCCUGUGCUACACAUCGUAUGUACCGAAUCGGUUUUUUUGGAAAAAGGUUUUUUUGGAAAGUAUUAUGUUACGCCGUUCGGAUCUGCACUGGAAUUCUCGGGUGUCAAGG | -1.11 |
| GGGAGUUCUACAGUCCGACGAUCCCUCAAGUCCUGUGCUACACAUCGUAUGUACCGAAUCGGUUGGUUGGUUGGGAAAGUAUUAUGUUACGCCGUUCGGAUCUGCACUUCCAGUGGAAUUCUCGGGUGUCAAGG | 0.213 |
| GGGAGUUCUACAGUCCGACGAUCCAAGUCCUGUGCUACACAUCGUAUGUACCGAAUCGGGGAAAGGGGUGGGGUGGGGAAAGUAUUAUGUUACGCCGUUCGGAUCUGCACUUCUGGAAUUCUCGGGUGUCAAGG | 1.32 |
| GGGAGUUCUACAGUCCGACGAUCGUCCUGUGCUACACAUCGUAUGUACCGAAUCAAAGUGUGUGUGUGUGUGUGUGUGUAAAAAAGUAUUAUGUUACGCCGUUCGGAUCUGCAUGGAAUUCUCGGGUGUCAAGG | 0.138 |
| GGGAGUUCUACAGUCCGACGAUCCCUGUGCUACACAUCGUAUGUACCGAAUCGGGAAAAAAGGGGAAAAAAGGGGAAAAAAGGGAAAGUAUUAUGUUACGCCGUUCGGAUCUGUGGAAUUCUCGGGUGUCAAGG | -0.576 |
| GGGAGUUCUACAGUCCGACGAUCUCCAAACCCAAGAAAAAGAAAUCUUUUUCCAAGGAGGAGUUGAUGAGUAGCGAUCUUGAAGAGACCGCUGGCAGCACCAGUAUUCCCAAGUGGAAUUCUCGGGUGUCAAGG | -0.775 |

Study 3
Target: Histone acetyltransferase KAT6A, winged helix 2, GST fusion (KAT6A, Homo sapiens, UniProt Q92794, residues 85-181)
Technique: protein binding microarray
Form: double-stranded DNA, one strand shown
Matrix: in vitro
Concentration: not given
Setting: 8-mer, flanks averaged, mean of 2 arrays, mostly near background
Relative to: not given
Direction: higher = stronger binding
Target sequence (chain): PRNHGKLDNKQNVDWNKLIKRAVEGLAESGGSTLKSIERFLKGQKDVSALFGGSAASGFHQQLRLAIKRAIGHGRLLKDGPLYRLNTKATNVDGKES
| Sequence | E-score |
| --- | --- |
| CGATAGAA | -0.161 |
| CACCCACC | -0.0377 |
| ATGTTTTC | 0.00791 |
| GTCGGAGA | 0.0955 |
| ATACTGCC | 0.016 |
| CTGATCCA | 0.0227 |
| AAGCTCGG | 0.123 |
| GGGTCGGA | 0.114 |
| CGACTGAG | -0.0486 |
| ACCGCTAG | -0.141 |
| CTGACACC | 0.0415 |
| AGCCACAC | 0.0357 |
| GGGTACCA | -0.00843 |
| ATAGGAGA | -0.142 |
| CAGATTGG | 0.00438 |
| ACACGCAA | 0.0147 |
| GGATATAC | 0.00102 |
| GACCAGAC | -0.0252 |
| CTATTCAA | -0.155 |
| CCATCGAC | 0.0721 |
| GCGGGTCA | 0.172 |
| CATGTCTC | -0.127 |

Study 4
Target: Centromere-binding protein 1, full length, His-tagged (CBF1, Saccharomyces cerevisiae, UniProt P17106, residues 1-351)
Chain of UniProt P17106 (whole entry, looked up): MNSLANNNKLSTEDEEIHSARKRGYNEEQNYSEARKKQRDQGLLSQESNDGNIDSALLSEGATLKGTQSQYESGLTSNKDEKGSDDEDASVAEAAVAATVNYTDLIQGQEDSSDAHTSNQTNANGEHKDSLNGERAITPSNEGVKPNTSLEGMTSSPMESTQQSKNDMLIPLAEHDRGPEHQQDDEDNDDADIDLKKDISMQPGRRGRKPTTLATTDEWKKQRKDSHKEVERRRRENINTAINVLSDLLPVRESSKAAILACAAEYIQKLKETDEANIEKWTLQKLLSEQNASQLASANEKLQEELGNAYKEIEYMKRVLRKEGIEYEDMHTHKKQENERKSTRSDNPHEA
Technique: competition protein-binding microarray
Form: double-stranded DNA, one strand shown
Matrix: in vitro
Concentration: 2 µM
Setting: whole 60-bp probe, lowest competitor level
With: Pho4 competitor, 0.05 µM
Direction: higher = stronger binding
| Sequence | fluorescence intensity [a.u.] |
| --- | --- |
| CATACCCAACCTTTTCACGTGAATTAAGATATTTGTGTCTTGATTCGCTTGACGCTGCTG | 1040 |
| CTTCTGTAAATTTGGCTTGTGGGTGGACGCGCCCCGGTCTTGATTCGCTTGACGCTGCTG | 92.4 |
| TCTGAGGGACAATGGCGCGTGATGGGCCAGAGACATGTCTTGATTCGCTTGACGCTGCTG | 169 |
| TGCGCAACAACTTGAGAGGTGGGTGTATGTCTAGAAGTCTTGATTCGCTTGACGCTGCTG | 59.7 |
| CTAACGAAGGTTTGTCACCCCACTTACAAGCCAAGTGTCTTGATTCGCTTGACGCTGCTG | 74.6 |
| CTTCTGTAAATTTGTCACGCTACTTGACGCGCCCCGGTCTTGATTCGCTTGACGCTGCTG | 280 |
| AAATTACTAAGTTCCCACGTGTTTTACCCCGTATGAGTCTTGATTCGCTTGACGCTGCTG | 925 |
| CGGGGTTAAGTTTGTCATGTGGGTGGCTTGCAGCAGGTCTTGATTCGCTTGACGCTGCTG | 151 |
| CTCTTCCCTCTATTTCACGTGAGTAAGCACAGAATAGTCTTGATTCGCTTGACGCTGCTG | 1060 |
| GTAGCTCTGTCAAACCCCGTGGAACCGCAAACTCATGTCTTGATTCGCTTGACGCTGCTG | 102 |
| CATACCCAACCTTGGCACGTGGGTGAAGATATTTGTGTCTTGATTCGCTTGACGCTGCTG | 1810 |
| GCCGCAAAATCCTCCATCGTGCTTTATATTTCGTCTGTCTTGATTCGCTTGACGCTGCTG | 71.7 |
| CAGATGAACTTCTTGAACGTGGACGCCGTATGCCATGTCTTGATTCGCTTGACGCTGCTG | 61.2 |
| ATTCCACTAGGGCTGGTCGTGGGTAACTTGGGGAGCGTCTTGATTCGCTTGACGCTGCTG | 62.5 |
| CATACCCAACCTTTTCACGTGACGTAAGATATTTGTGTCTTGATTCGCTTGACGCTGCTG | 5630 |
| GGGCTTATGAGAGACCACGTGGTCTTGTGCTTTAGTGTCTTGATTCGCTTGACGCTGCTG | 3190 |
| GGCAAATATAACGGCCACGTGCCGAGGGGTTTCTCTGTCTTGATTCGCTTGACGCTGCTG | 1650 |
| CTAACGAAGGTTTTTCACGTGTTATACAAGCCAAGTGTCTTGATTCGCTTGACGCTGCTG | 908 |
